Measurements gathered from unrelated publications.
± gives the spread as reported. ≈ marks a conversion by molar mass, not a printed value.

Protein sequences, listed by entry. Tags and fused reporters are not part of them.
UniProt P18089, whole entry: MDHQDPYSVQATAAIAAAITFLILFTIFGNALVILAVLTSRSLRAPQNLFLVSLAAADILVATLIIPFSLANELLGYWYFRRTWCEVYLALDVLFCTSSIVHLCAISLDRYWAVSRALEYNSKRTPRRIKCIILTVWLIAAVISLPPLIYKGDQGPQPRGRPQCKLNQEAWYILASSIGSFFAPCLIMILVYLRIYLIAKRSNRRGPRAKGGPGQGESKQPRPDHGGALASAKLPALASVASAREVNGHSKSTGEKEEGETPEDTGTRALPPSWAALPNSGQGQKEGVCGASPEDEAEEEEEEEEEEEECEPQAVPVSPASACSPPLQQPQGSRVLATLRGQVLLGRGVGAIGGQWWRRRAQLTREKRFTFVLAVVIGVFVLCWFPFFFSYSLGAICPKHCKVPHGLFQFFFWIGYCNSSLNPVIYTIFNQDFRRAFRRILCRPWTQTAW
UniProt P41145, whole entry: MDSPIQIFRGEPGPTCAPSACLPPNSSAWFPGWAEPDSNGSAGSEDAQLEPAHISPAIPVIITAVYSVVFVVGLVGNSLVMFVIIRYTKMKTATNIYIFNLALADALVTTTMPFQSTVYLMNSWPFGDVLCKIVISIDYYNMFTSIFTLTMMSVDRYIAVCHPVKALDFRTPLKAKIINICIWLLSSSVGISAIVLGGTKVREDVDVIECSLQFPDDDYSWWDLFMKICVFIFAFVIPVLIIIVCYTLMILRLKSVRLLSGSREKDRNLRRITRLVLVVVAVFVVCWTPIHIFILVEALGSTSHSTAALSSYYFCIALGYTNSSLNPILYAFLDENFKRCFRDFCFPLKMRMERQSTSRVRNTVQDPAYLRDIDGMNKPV

SMILES = O=c1ccc2nc3ccc(O)cc3oc-2c1; tested on = Mycobacterium tuberculosis; system = mc2 6206 PA-824-resistant ddn mutant; conditions = 7 days; measurement = MIC90; value = > 256 µM
SMILES = CC(C)Cc1nnc2c(C(=O)NC3c4ccccc4-c4ccccc43)cccn12; tested on = Escherichia coli; test = broth microdilution; system = MB5746 rpoZ Δ21-91 frameshift; scale = relative to: mutant over wild type; measurement = MIC ratio; value = > 32
SMILES = O=c1ccc2nc3ccc(OCC(O)C(F)(F)F)cc3oc-2c1 (centres unmarked); tested on = Mycobacterium tuberculosis; system = mc2 6206 PA-824-resistant ddn mutant; conditions = 7 days; measurement = MIC90; value = > 512 µM
SMILES = CC#C/C(=N\OC[C@H]1COCCN1)c1ccc2ncnc(Nc3ccc(OCc4cccc(F)c4)c(Cl)c3)c2c1; tested on = NCI-N87; test = cell growth, WST-8; conditions = 72 h; measurement = IC50; value = 8.3 ± 2.6 nM
SMILES = CCCN1CCN(c2ccc3c(c2)C2CC3CCN2C(=O)OCc2ccccc2)CC1 (centres unmarked); tested on = ADRA2B (Homo sapiens, UniProt P18089); test = binding, radioligand binding; measurement = Ki; value = 1800 nM
SMILES = Cc1ccc(S(=O)(=O)N(C)CC(=O)N(Cc2ccc(C3CCCCC3)cc2)c2ccc(C(=O)O)c(O)c2)cc1; tested on = STAT5 homodimer (mouse); test = EMSA, measured: MGFe probe; system = NIH3T3/hEGFR nuclear extracts; conditions = up to 300 µM, with: EGF; measurement = DNA-binding activity; value = no effect
SMILES = C[C@H](Cc1ccc(O)c(O)c1)[C@@H](C)Cc1ccc(O)c(O)c1; system = human skin; conditions = 3% solution, 8 h, skin UV-treated 20 min; measurement = amount in dermis; value = 8.87 ± 1.21 µg
SMILES = CC[C@H](C)[C@@H]1NC(=O)[C@H](CCC(=O)O)NC(=O)[C@@H]2CCCN2C(=O)[C@H](Cc2c[nH]cn2)NC(=O)[C@H](CC(=O)O)NC(=O)[C@H](Cc2ccc(O)cc2)NC(=O)[C@H](CC(N)=O)NC(=O)[C@@H]2CSSC[C@@H]3NC(=O)CNC(=O)CNC(=O)CNC(=O)[C@H](C)NC(=O)[C@H](C)NC(=O)CNC(=O)CNC(=O)[C@H](CSSC[C@H](NC3=O)C(=O)N[C@@H](CO)C(=O)N[C@@H](CC(=O)O)C(=O)N3CCC[C@H]3C(=O)N[C@@H](CCCNC(=N)N)C(=O)N2)NC1=O; tested on = Cav2.1 rabbit; test = Ba2+ current; conditions = 200 nM; measurement = inhibition; value = 20 ± 4%
SMILES = Cn1c(COc2ccc3nc4ccc(=O)cc-4oc3c2)cnc1[N+](=O)[O-]; tested on = Mycobacterium tuberculosis; system = mc2 6206 PA-824-resistant ddn mutant; conditions = 7 days; measurement = MIC90; value = > 256 µM
SMILES = CCN1CCN(Cc2ccc(NC(=O)c3ccc(C)c(/C=C/c4cnc5[nH]ccc5c4OC)c3)cc2C(F)(F)F)CC1; tested on = FGFR1OP-FGFR1 fusion; test = kinase-CDC37 interaction, cell-based kinome screen; conditions = 5 µM; scale = relative to: vehicle; measurement = log2 fold change; value = -1.38
SMILES = CCN(CC)C(=O)Oc1ccc(C(=O)Nc2cccc3cc[nH]c23)cc1; tested on = rat NMDA receptor GluN2C/GluN2D vs GluN2A/GluN2B; test = ion current, two-electrode voltage clamp; system = Xenopus oocytes; scale = relative to: GluN2A/GluN2B over GluN2C/GluN2D potency; measurement = selectivity ratio; value = > 800 fold
SMILES = CO[C@]12CC[C@@]3(C[C@@H]1[C@H](O)c1ccccc1)[C@H]1Cc4ccc(O)c5c4[C@@]3(CCN1CC1CC1)[C@H]2O5; tested on = OPRK1 (Homo sapiens, UniProt P41145); test = G-protein activation, agonist; measurement = EC50; value = 1.09 nM
SMILES = Cc1cc(C(=O)O)ccc1-c1c2ccc(=O)cc-2oc2cc(OCc3ccc([N+](=O)[O-])o3)ccc12; tested on = Mycobacterium tuberculosis; system = mc2 6206 bedaquiline-resistant MmpL5 regulator mutant; conditions = 7 days; measurement = MIC90; value = 24 µM (≈ 11.3 µg/mL)
SMILES = CCCCCCC1c2ccc(O)cc2Oc2cc(O)ccc21; tested on = Salmonella Typhimurium; system = SL1344; conditions = with: NAB7061 4 µg/mL; measurement = MIC; value = 1.6 µg/mL (≈ 5.36 µM)
SMILES = CCC(C)C1NC(=O)/C(=C(/C)O)C1=O (centres unmarked); tested on = Arabidopsis thaliana; test = apo-pHusion imaging, measured: apoplastic pH; system = elongating root cells; conditions = 10 µM; measurement = time to peak alkalinization; value = 3 to 4 min
SMILES = CSc1nc(Cl)cc(Sc2nnc(-c3cc(C(F)(F)F)cc(C(F)(F)F)c3)[nH]2)n1; tested on = Klebsiella pneumoniae; system = BARB 105; measurement = MIC; value = > 590 µg/mL
SMILES = c1ccc(Nc2cccc3ccccc23)cc1; tested on = Manis javanica OBP3 I101A; test = binding, fluorescence binding; conditions = with: 1-NPN probe; measurement = Kd; value = 830 ± 270 nM

Repeated from above:
SMILES = CC#C/C(=N\OC[C@H]1COCCN1)c1ccc2ncnc(Nc3ccc(OCc4cccc(F)c4)c(Cl)c3)c2c1; tested on = NCI-N87; test = cell growth, WST-8; conditions = 72 h; measurement = IC50; value = 8.3 ± 2.6 nM
